# Experimental data collected from several papers.
# Protocols differ between the studies behind these lines. Values joined by “and” are separate records of one study, mostly repeats; a detail may differ. ± gives the spread as reported.
SMILES,test,test system,conditions,how to read,quantity,result
COc1cccc(Oc2ccccc2NC(=O)CNC(=O)c2cccc3ccccc23)c1,,"esterase-deficient SCID mice, male, blood","oral, 100 mg/kg/day, 14 days, toxicity study",reference: white cells,monocytes,5.1% and 6% and 13.5%
O=C(Nc1ccccc1)C1CCN(C(=O)Oc2cccnc2)CC1,psychotropic effects VAS,healthy women,100 mg,"reference: pre-dose baseline, direction not given",change in Sounds score,0.1
Cc1ccc(F)c2cc(C(=O)N[C@@H]3CCC[C@H](N4CC[C@H](N(C)S(C)(=O)=O)C4)C3)[nH]c12,,"CD1 mouse, plasma","oral, 30 mg/kg, 0.25 h",,plasma concentration,523 ng/mL
COc1cc2c(Oc3ccc4[nH]c(C)cc4c3F)ccnc2cc1OCC1(N)CC1,,paediatric recurrent refractory sarcoma,12 mg,,grade 3 Thrombocytopenia,0%
CC(C)C[C@H](NC(=O)[C@H](C)NC(=O)[C@@H](NC(=O)[C@H](CCCNC(=N)N)NC(=O)[C@H](CC(C)C)NC(=O)[C@H](Cc1c[nH]c2ccccc12)NC(=O)[C@@H]1CCCN1C(=O)[C@@H](N)CCCCN)C(C)C)C(=O)N[C@@H](CS)C(=O)N1CCC[C@H]1C(=O)NCC(=O)O,,sheep red blood cells,"128 µM, 1 h, 37 °C",,hemolysis,0.86% and 0.45% and 1.1%
CCc1ccc(CC/C=C/c2ccc3c(c2)C(=O)CC3)cc1,,"Sprague-Dawley rat, female, serum","oral, 120 mg/kg/day, 14 days",,creatinine,24 µM
COc1ccc(CCC2CCCC(CCc3ccc(OC)cc3)N2C[C@@H](O)CO)cc1.Cl (stereo in doubt),,rabbit Purkinje fibres,"0.1 µM, cycle length 0.5 s",reference: baseline,Vmax change,1.2 ± 4.7%
O=C(O)C(O)(c1cccs1)c1cccs1,,"human, CSF","2 mg once daily, 5 days, median",,dose-normalised AUC(0-24),0.38 (ng·h/mL)/mg
[2H]C([2H])([18F])[C@]([2H])(N)C(=O)O,PET,"athymic nude mice, U-87 MG","dose not given, 20 min post-injection",reference: tumour over muscle,tumour-to-muscle ratio,1.13 ± 0.17
COc1cc(Nc2ncc(F)c(Nc3ccc4c(n3)NC(=O)C(C)(C)O4)n2)cc(OC)c1OC,,HEPES buffer,"24 h, pH 7.4, 1% DMSO",,solubility,2.4 µM
C[C@]1(CO)Cc2ncn(-c3ccc(C#N)c(Cl)c3)c2C(=O)O1,,healthy European subjects,"dose not given, single dose, all doses",,drug-related orthostatic hypotension,2.1%
CO[C@H]1C[C@@H]2CC[C@@H](C)[C@@](O)(O2)C(=O)C(=O)N2CCCC[C@H]2C(=O)O[C@H]([C@H](C)C[C@@H]2CC[C@@H](OC(=O)NCCOCCOCCOCCOCCOCCOCCOCCOCCC(=O)N3CCc4cc(Cn5nc(-c6ccc7oc(N)nc7c6)c6c(N)ncnc65)ccc4C3)[C@H](OC)C2)C[C@@H](O)[C@H](C)/C=C(\C)[C@@H](O)[C@@H](OC)C(=O)[C@H](C)C[C@H](C)/C=C/C=C/C=C/1C,"phase 1 dose escalation, item: rash",advanced solid tumour patients,"intravenous, 16 mg weekly, grade ≥3",,TRAE incidence,0%
CN1CC[C@@H](c2c(O)cc(O)c3c(=O)cc(-c4ccc(C(F)(F)F)cc4Cl)oc23)[C@@H]1CO,item: Lymphopenia,relapsed B-cell malignancies,"oral, 150 mg, grade 3-4, intermittent dosing",,patients with adverse event,0%

# A few entries again:
SMILES,test,test system,conditions,how to read,quantity,result
O=C(Nc1ccccc1)C1CCN(C(=O)Oc2cccnc2)CC1,psychotropic effects VAS,healthy women,100 mg,"reference: pre-dose baseline, direction not given",change in Sounds score,0.1
COc1cc(Nc2ncc(F)c(Nc3ccc4c(n3)NC(=O)C(C)(C)O4)n2)cc(OC)c1OC,,HEPES buffer,"24 h, pH 7.4, 1% DMSO",,solubility,2.4 µM
